Experimental data pooled from the literature.
Target: Receptor-interacting serine/threonine-protein kinase 4 (RIPK4, Homo sapiens, UniProt P57078)

| SMILES | assay | system | setting | scale | quantity | result |
| --- | --- | --- | --- | --- | --- | --- |
| C=CC(=O)Nc1cc(-c2nn(C3CCN(CCNC(=O)[C@H](C)CCC45CC6CC(CC(C6)C4)C5)CC3)c3ncnc(N)c23)ccc1Oc1ccccc1 | inhibitor, KiNativ profiling | biochemical | 2 µM |  | inhibition | -7.6% |
| CNC(=O)C1CCN(c2cc(C)c(F)cc2NC(=O)c2ccc(-c3cc(O)ccc3C)c(C)c2)CC1 | binding, competition with immobilised ligand |  | 1 µM |  | remaining binding | 100% |
| C=CC(=O)N1CCc2ccc(-n3c(=O)ccc4cnc5ccc(-c6cnn(C)c6)cc5c43)cc21 | KINOMEscan |  | 1 µM | relative to: DMSO control | remaining binding | 100% |
| CNC1C[S+]2CC[S+]3CC[S+](C1)[Ru-4]321([N]=C=S)[n]2c3ccc(OC)cc3c3c4c(c5cc(F)c[n+]1c5c32)C(=O)NC4=O (stereo not drawn) | KinomeScan |  | 0.1 µM | relative to: untreated | remaining binding | 82% |
| COc1cc(Nc2nccc(-c3cnn4nc(OC)ccc34)n2)cc(C(F)(F)F)c1 | binding, competition with immobilised ligand |  | 1 µM |  | remaining binding | 100% |
| Nc1ncc(-c2cc(-c3cnn(CC(F)(F)F)c3)ncc2F)nc1C(=O)NC1CNCC(F)C1 (stereo not drawn) | enzyme activity |  | 1 µM | relative to: DMSO control | remaining activity | 85.5% |
| COc1cc(Nc2nc(C)cc(-c3cnn4nc(OC)ccc34)n2)cc(C(F)(F)F)c1 | binding, competition with immobilised ligand |  | 1 µM |  | remaining binding | 89% |
| Nc1ncc2c(n1)-c1c([nH]c3ccc(C4=CCOCC4)cc13)CCC2 | binding, competition with immobilised ligand |  | 1 µM |  | remaining binding | 98% |
| C=CC(=O)N1CCCC(n2c(=O)c3ncccc3n(Cc3ccc(Oc4ccccc4)cc3)c2=O)C1 (stereo not drawn) | cell-free assay, competition with immobilised ligand |  | 1 µM |  | remaining binding | 64% |
| Cc1cnc2nc1Nc1cccc(c1)COC/C=C/COCc1cc(ccc1OCCN1CCOCC1)N2 | binding, competition with immobilised ligand |  | 0.1 µM |  | remaining binding | 74% |
| CCN1CCN(Cc2ccc(C(=O)Nc3ccc(C)c(NCc4cnc5[nH]ccc5c4OC)c3)cc2C(F)(F)F)CC1 | binding, competition with immobilised ligand |  | 1 µM |  | remaining binding | 37% |
| CCn1cc(C(=O)O)c(=O)c2c(N)c(F)c(NC3CCCCC3)cc21 | kinase activity |  | 0.1 µM, together with: ATP at Km |  | inhibition | -21.6% |
| CC(C)=CC1OC(C)(C)C2C=C3C(=O)C(Cl)=CC(O)C3C3C(O)C4OC4C(=O)C132 (stereo not drawn) | cell-free assay, competition with immobilised ligand |  | 10 µM |  | remaining binding | 70% |
| COc1c(Cl)cccc1Nc1c(-c2ccncc2C#C[C@@]2(C)CCCN2C(=O)/C=C/CN(C)C)[nH]c2c1C(=O)NCC2 | binding, competition with immobilised ligand |  | 3 µM |  | remaining binding | 64% |
| Cc1ccc(-c2c(/C=C(\C#N)C(=O)NC(C)C)n(CCCO)c3ncnc(N)c23)cc1 | cell-free assay, competition with immobilised ligand |  | 1 µM |  | remaining binding | 100% |

Repeated from above:
| SMILES | assay | system | setting | scale | quantity | result |
| --- | --- | --- | --- | --- | --- | --- |
| C=CC(=O)Nc1cc(-c2nn(C3CCN(CCNC(=O)[C@H](C)CCC45CC6CC(CC(C6)C4)C5)CC3)c3ncnc(N)c23)ccc1Oc1ccccc1 | inhibitor, KiNativ profiling | biochemical | 2 µM |  | inhibition | -7.6% |
